Measured values collected from several papers.
Each numbered part is a random draw from the data of one study; scales do not carry over between parts. Substitutions count along the parent as printed.

Set 1 — technique: Sort-seq; refers to: YFP reporter; matrix: E. coli; setting: PhoQ-PhoP variant library; with: 10 µM Mg2+; relative to: high Mg2+ state; direction: higher = stronger signaling
Molecule: PhoQ, residues 284 288 289 292 302 303 SSCLAV
target | fold induction
PhoP, residues 12 14 15 18 19 ICWRQ (Escherichia coli, UniProt P23836) | 8.16
PhoP, residues 12 14 15 18 19 VHTVL (Escherichia coli, UniProt P23836) | 5.88
PhoP, residues 12 14 15 18 19 TQCLL (Escherichia coli, UniProt P23836) | 12

Set 2 — technique: DHFR PCA, deep sequencing; matrix: yeast; with: (+)-ABA 58 µM; relative to: wild-type fitted maximum; direction: higher = stronger binding
Target: ABI1, truncated, D143A, DHFR fusion (Arabidopsis thaliana)
Setting: methotrexate growth selection, single substitutions
Parent: PYL1, truncated, DHFR fusion (Arabidopsis thaliana); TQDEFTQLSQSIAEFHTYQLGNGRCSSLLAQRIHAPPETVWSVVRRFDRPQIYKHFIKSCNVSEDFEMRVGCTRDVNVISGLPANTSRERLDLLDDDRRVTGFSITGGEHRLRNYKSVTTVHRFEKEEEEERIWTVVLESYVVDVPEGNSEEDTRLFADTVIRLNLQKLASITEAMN; partner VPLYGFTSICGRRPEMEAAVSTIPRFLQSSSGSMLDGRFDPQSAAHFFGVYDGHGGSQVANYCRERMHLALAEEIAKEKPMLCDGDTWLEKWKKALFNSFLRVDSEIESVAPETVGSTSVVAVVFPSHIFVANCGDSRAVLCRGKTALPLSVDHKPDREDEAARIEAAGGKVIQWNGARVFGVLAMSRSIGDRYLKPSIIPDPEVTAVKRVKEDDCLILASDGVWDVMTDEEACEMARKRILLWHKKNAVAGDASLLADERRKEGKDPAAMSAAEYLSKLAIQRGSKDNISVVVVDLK
Variant | relative binding score [%]
R132W | 75.2
R123T | 94.3
R90T | 77.1
G81K | 27.9
C25P | 8.99
P146T | 30
L82Y | 16.9
W134S | 99.5
V121F | 7.11
I162G | 2.98
V142C | 82.8
L156P | 1.13
R113K | 101
V43N | 21.8

Set 3 — target: CCNB2, cyclin fold, Cln2 fusion (human); technique: yeast growth competition, sequencing; matrix: yeast; setting: strong parent motif; relative to: not given; direction: higher = stronger binding
Parent: BRCA2 docking peptide (human); PSIKRNLLNEFDR; partner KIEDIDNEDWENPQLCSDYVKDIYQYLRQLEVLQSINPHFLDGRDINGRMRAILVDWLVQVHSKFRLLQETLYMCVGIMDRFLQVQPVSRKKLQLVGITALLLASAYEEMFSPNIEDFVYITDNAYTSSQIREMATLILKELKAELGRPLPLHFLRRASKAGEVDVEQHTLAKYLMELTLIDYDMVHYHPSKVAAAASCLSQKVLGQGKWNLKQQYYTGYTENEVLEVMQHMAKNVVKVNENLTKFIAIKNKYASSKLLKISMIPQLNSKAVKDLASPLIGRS
Variant | normalised enrichment score
PSIMRNLLNEFDR [K4M] | 2.05
PSIKRNLLNEFDS [R13S] | 4
PSIRRNLLNEFDR [K4R] | 3.89
PSIKRNLLNEFDM [R13M] | 3.9
DSIKRNLLNEFDR [P1D] | 3.77
PSIKRNLANEFDR [L8A] | 2.55
PSIKRNLLNEFRR [D12R] | 1.58
PSYKRNLLNEFDR [I3Y] | 1.11
PSIKRNLLNEKDR [F11K] | 0.132
PSIKRGLLNEFDR [N6G] | -0.181
PSIKRNLLNAFDR [E10A] | 0.7
PSIKRNLGNEFDR [L8G] | 0.901
PSIKRNLPNEFDR [L8P] | 0.0213
PSIKRNLLNYFDR [E10Y] | 1.05
PSIWRNLLNEFDR [K4W] | 0.0803
PVIKRNLLNEFDR [S2V] | 2.49
PSIGRNLLNEFDR [K4G] | 0.476
PSIKRNLLNEFDG [R13G] | 3.81
YSIKRNLLNEFDR [P1Y] | 4.09
PSAKRNLLNEFDR [I3A] | 1.54

Set 4 — technique: RNA Bind-n-Seq; form: RNA; matrix: in vitro; concentration: 365 nM; relative to: no-protein control; direction: higher = stronger binding
Target: RNA binding protein fox-1 homolog 2, RRM domain, GST-SBP tag (RBFOX2, Homo sapiens, UniProt O43251-10, residues 100-194)
Setting: natural RNA segment, single round, ends assumed
Shared flanks, not repeated: GGGAGUUCUACAGUCCGACGAUC … UGGAAUUCUCGGGUGCCAA
Residues (chain): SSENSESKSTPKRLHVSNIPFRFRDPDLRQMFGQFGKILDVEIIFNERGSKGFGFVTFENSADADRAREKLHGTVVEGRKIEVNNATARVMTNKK
Sequence | RBNS enrichment (R)
UCUGCACUGUGUUUGCCAGCCCUGCCCCCAUCUGAUGGACCAGGCAGUCCUUUAUCUGGAGGGAAAAGUCUGAUGCCAGCAGAGGUCCUGGGGCGCUGCUCUCCCAGGUC | 0.25
ACCCUCCACCUGCCCAGAGGCCAACUCUGUUCCCUUCUCCUUUCAUCCCAGAGGGGCCUCAUCAGCAAAGACAGAAACUGAUGUUCCAUGCAUGUCCCUGCUUCCAAAGC | 7.7
UCCAGUGCAAAAGGCCUAGACACUCCCAGUAGCCCAGCCUCUCUGGUCAUCUCUCCGUUCACACCCGAGGCUACACCUGAGGCUGAUUUCCUAAGGCUCCCUCCCAGGCA | 0.939
UCUUGCCCUGUAACCCAUAUCUACUGUUCUGGCGACAAAAGACAGAUGUUAAGUGUAACAGAUAAUUGGAGCUACGAGCCAUUCAGCUUCAGCCUUUCCAGACCACACAC | 0.371
AUGAAGAACAAGGUGGUAUGAUCUUACUAUAUAAGAAAAACAAAACUUCAUUCUUGUGAGUCAUUUAAAUGUGUACAAUGUACACACUGGUACUUAGAGUUUCUGUUUUG | 0.286
CCCCAGCUCUCCCUACGCUGCUCGGGCCAUUGCCCAGCCAGAUGUGGUCACCUCAGUCCAGCUCUGGGGCCUCCAGGCCAUGUGGCUGUUCCCACGGCCCAGUCCUCGCU | 0.342
CCUCCCACCAGCUGGAUGCCCAUUUCUGAGCUCAGUCACUGAAGUGAGAGUGUGCUCCCCCAAGGGAGGCUUCUCUCCAUCAGGAUGGUACUUUGGGGGAACAAAAUAGU | 0.245
UGACCUCUGGAGCACCAGGUGCCAGGACUUGUCUCCAUGUGUAUCCAUGCAUUAUAUACCCUGGUGCAAUCACACGACUGUCAUCUAAAGUCCUGGCCCUGGCCCUUACU | 0.358
CAUGCCCUUUGGACCCAGUUCCCACCGAGGCCCCAGCAGAGUGGAGGGCACAACACUUUCAUUCAGCAAAAUCGUUUGUGUUCCAGUCACACUGUGGGCACCUCUUGCAU | 0.72
UCCUGUACUUUGCAACCCCUAAGCUUCAAACCUCUUGCUCAAGACCCAAGACUUAUUCAAAGCUGUGGCUAAGAGCAGAGACGCUGUUCACACAACGCCUCACCACCACC | 0.359
GGUUUCAGGGCACUGAAGCCUUCCCGAAGUGCGUACACAUUCUGGGGAGUGUGCUCCAGCUGCCCCCGACUUGUUUGGGUGAUCUCUCUGGGGCGGCACGUUUUACUCUU | 0.324
UGUUGGGGUUCCAGUGGAGCUGAGAAAGUGAACAAUCCAGCUACUUAAAGCAACAACAAAACCUGUUCAUCUGGAUCCCUAGGUAAUUUUGACCAAGGUGAGACUUUUGG | 0.292

A few entries again (set 4):
Sequence | RBNS enrichment (R)
CCUCCCACCAGCUGGAUGCCCAUUUCUGAGCUCAGUCACUGAAGUGAGAGUGUGCUCCCCCAAGGGAGGCUUCUCUCCAUCAGGAUGGUACUUUGGGGGAACAAAAUAGU | 0.245
UCUUGCCCUGUAACCCAUAUCUACUGUUCUGGCGACAAAAGACAGAUGUUAAGUGUAACAGAUAAUUGGAGCUACGAGCCAUUCAGCUUCAGCCUUUCCAGACCACACAC | 0.371
GGUUUCAGGGCACUGAAGCCUUCCCGAAGUGCGUACACAUUCUGGGGAGUGUGCUCCAGCUGCCCCCGACUUGUUUGGGUGAUCUCUCUGGGGCGGCACGUUUUACUCUU | 0.324
UGACCUCUGGAGCACCAGGUGCCAGGACUUGUCUCCAUGUGUAUCCAUGCAUUAUAUACCCUGGUGCAAUCACACGACUGUCAUCUAAAGUCCUGGCCCUGGCCCUUACU | 0.358
UCCAGUGCAAAAGGCCUAGACACUCCCAGUAGCCCAGCCUCUCUGGUCAUCUCUCCGUUCACACCCGAGGCUACACCUGAGGCUGAUUUCCUAAGGCUCCCUCCCAGGCA | 0.939
